# Measured values collected from several papers.
# Target: Phosphatidylinositol 3-kinase catalytic subunit type 3 (PIK3C3, Homo sapiens, UniProt Q8NEB9)
SMILES,observed,mode,method,tested at,endpoint,value
CN1CCN(Cc2ccc(-c3ccc(CO[C@H]4CCC[C@@H]4NC(=O)c4cc(-c5cnn(C)c5)cnc4N)cc3)cc2)CC1,enzyme activity,inhibitor,,0.1 µM,inhibition,-5%
COc1cc(Nc2nc(C)cc(-c3cnn4nc(OC)ccc34)n2)cc(C(F)(F)F)c1,binding,,competition with immobilised ligand,1 µM,remaining binding,100%
Cc1cnc2nc1Nc1cccc(c1)COC/C=C/COCc1cc(ccc1OCCN1CCOCC1)N2,binding,,competition with immobilised ligand,0.1 µM,remaining binding,75%
CC(C)=CC1OC(C)(C)C2C=C3C(=O)C(Cl)=CC(O)C3C3C(O)C4OC4C(=O)C132 (centres unmarked),cell-free assay,,competition with immobilised ligand,10 µM,remaining binding,66%
CNC(=O)C1CCN(c2cc(C)c(F)cc2NC(=O)c2ccc(-c3cc(O)ccc3C)c(C)c2)CC1,binding,,competition with immobilised ligand,1 µM,remaining binding,64%
C=CC(=O)N1CCCC(n2c(=O)c3ncccc3n(Cc3ccc(Oc4ccccc4)cc3)c2=O)C1 (centres unmarked),cell-free assay,,competition with immobilised ligand,1 µM,remaining binding,88%
COc1cc(Nc2nccc(-c3cnn4nc(OC)ccc34)n2)cc(C(F)(F)F)c1,binding,,competition with immobilised ligand,1 µM,remaining binding,100%
COc1c(Cl)cccc1Nc1c(-c2ccncc2C#C[C@@]2(C)CCCN2C(=O)/C=C/CN(C)C)[nH]c2c1C(=O)NCC2,cell-free assay,,competition with immobilised ligand,3 µM,remaining binding,83%
CCN1CCN(Cc2ccc(NC(=O)c3ccc(C)c(NC(=O)c4cncc(-c5cnn(C)c5)c4)c3)cc2C(F)(F)F)CC1,binding,,competition with immobilised ligand,1 µM,remaining binding,100%
C=CC(=O)N1Cc2nc(-c3cc(-c4cc(Cl)cnc4Cl)c(F)cc3F)n(-c3ccncn3)c2C1,cell-free assay,,,1 µM,inhibition,-2.2%
Nc1ncc2c(n1)-c1c([nH]c3ccc(C4=CCOCC4)cc13)CCC2,binding,,competition with immobilised ligand,1 µM,remaining binding,68%

# A few entries again:
SMILES,observed,mode,method,tested at,endpoint,value
C=CC(=O)N1Cc2nc(-c3cc(-c4cc(Cl)cnc4Cl)c(F)cc3F)n(-c3ccncn3)c2C1,cell-free assay,,,1 µM,inhibition,-2.2%
